Results of several laboratories.
Several values in a cell are separate wells, animals, samples, runs or records.
Target: Macrophage-stimulating protein receptor (MST1R, Homo sapiens, UniProt Q04912)

`CN1CC[C@@H](COc2cnc(C#N)cc2-c2ccn3nc(NC(=O)C4CC4)cc3c2)C1` gave an inhibition of -8% (enzyme activity, inhibitor; 1 µM).
`C=CC(=O)Nc1cccc(-c2cnc3[nH]cc(C(=O)NC(C)(C)C)c3n2)c1` gave an inhibition of 18% and 19% (kinase activity; 0.1 µM).
The remaining binding of `COc1c(Cl)cccc1Nc1c(-c2ccncc2C#C[C@@]2(C)CCCN2C(=O)/C=C/CN(C)C)[nH]c2c1C(=O)NCC2` is reported as 99% (cell-free assay, competition with immobilised ligand; 3 µM).
`Cc1ccc(-c2c(/C=C(\C#N)C(=O)NC(C)C)n(CCCO)c3ncnc(N)c23)cc1` gave a remaining binding of 96% (cell-free assay, competition with immobilised ligand; 1 µM).
For `CC(C)=CC1OC(C)(C)C2C=C3C(=O)C(Cl)=CC(O)C3C3C(O)C4OC4C(=O)C132` (centres unmarked), the remaining binding was 95% (cell-free assay, competition with immobilised ligand; 10 µM).
The inhibition of `C=CC(=O)N1Cc2nc(-c3cc(-c4cc(Cl)cnc4Cl)c(F)cc3F)n(-c3ccncn3)c2C1` is reported as 5.8% (cell-free assay; 1 µM).
The inhibition of `NC(=O)C[C@H]1CCc2sc3ncnc(O[C@H]4CC[C@H](N5CCOCC5)CC4)c3c21` is reported as 3% (enzyme activity, inhibitor; 10 µM).
`Cc1cnc2nc1Nc1cccc(c1)COC/C=C/COCc1cc(ccc1OCCN1CCOCC1)N2` gave a remaining binding of 94% (binding; 0.1 µM).
The remaining activity of `Nc1ncc(-c2cc(-c3cnn(CC(F)(F)F)c3)ncc2F)nc1C(=O)NC1CNCC(F)C1` (centres unmarked) is reported as 103% (enzyme activity; 1 µM; baseline: DMSO control).
The inhibition of `CN1CCN(Cc2ccc(-c3ccc(CO[C@H]4CCC[C@@H]4NC(=O)c4cc(-c5cnn(C)c5)cnc4N)cc3)cc2)CC1` is reported as -11% (enzyme activity, inhibitor; 0.1 µM).
`C=CC(=O)N1CCCC(n2c(=O)c3ncccc3n(Cc3ccc(Oc4ccccc4)cc3)c2=O)C1` (centres unmarked) gave a remaining binding of 87% (cell-free assay, competition with immobilised ligand; 1 µM).
The inhibition of `Cc1cccc(O[C@H]2CCC[C@@H](C(C)CNCc3ccncc3)C2)c1` (relative stereo) is reported as 0% (cell-free assay; 10 µM).
`CNC(=O)C[C@H](Cc1ccc(C#N)cc1)NC(=O)c1cc(-c2ccc(CN[C@H](C)c3ccc(C)cc3)o2)ccc1Cl` — result for “activity vs control”: 104% (enzyme activity, inhibitor; 1 µM).
For `O=C=[N][Ru-4]123([n]4c5ccc(O)cc5c5c6c(c7cc(F)c[n+]1c7c54)C(=O)NC6=O)[S+]1CC[S+]2CC[S+]3CC1` (centres unmarked), the remaining activity was 108% (enzyme activity; 100 nM, human enzyme, added: 10 µM ATP; baseline: untreated).

Some of these lines once more:
The remaining binding of `COc1c(Cl)cccc1Nc1c(-c2ccncc2C#C[C@@]2(C)CCCN2C(=O)/C=C/CN(C)C)[nH]c2c1C(=O)NCC2` is reported as 99% (cell-free assay, competition with immobilised ligand; 3 µM).
`Cc1ccc(-c2c(/C=C(\C#N)C(=O)NC(C)C)n(CCCO)c3ncnc(N)c23)cc1` gave a remaining binding of 96% (cell-free assay, competition with immobilised ligand; 1 µM).
